Measured values of several laboratories.
Parts stem from different laboratories: compare values within a part only.
Sequence of UniProt Q99720 (whole entry, looked up): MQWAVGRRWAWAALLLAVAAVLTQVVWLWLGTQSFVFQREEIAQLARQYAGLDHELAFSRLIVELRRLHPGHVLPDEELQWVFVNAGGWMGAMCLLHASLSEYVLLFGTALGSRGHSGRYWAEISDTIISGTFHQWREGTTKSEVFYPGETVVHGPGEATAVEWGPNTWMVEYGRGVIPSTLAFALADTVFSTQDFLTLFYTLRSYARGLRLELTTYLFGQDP
Sequence of UniProt Q8N568 (whole entry, looked up): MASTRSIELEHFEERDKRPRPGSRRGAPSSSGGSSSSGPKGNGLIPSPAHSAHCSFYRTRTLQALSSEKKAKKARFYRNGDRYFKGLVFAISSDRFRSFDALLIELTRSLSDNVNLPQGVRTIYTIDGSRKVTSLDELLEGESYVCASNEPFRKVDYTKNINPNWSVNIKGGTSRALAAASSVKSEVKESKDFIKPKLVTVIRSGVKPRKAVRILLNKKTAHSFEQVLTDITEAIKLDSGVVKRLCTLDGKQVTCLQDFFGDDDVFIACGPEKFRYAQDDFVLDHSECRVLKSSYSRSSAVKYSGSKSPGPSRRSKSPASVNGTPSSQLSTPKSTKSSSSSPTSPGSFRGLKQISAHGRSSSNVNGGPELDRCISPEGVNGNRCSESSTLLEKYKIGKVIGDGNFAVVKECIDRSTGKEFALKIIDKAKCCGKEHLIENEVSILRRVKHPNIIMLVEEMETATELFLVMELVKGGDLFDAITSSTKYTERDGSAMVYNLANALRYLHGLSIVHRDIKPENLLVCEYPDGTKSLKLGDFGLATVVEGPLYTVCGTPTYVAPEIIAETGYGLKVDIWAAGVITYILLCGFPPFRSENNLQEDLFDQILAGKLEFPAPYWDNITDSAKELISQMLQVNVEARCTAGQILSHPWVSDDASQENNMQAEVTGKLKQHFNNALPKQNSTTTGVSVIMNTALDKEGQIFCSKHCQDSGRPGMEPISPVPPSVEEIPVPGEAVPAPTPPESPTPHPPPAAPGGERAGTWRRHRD
Sequence of UniProt P13945 (whole entry, looked up): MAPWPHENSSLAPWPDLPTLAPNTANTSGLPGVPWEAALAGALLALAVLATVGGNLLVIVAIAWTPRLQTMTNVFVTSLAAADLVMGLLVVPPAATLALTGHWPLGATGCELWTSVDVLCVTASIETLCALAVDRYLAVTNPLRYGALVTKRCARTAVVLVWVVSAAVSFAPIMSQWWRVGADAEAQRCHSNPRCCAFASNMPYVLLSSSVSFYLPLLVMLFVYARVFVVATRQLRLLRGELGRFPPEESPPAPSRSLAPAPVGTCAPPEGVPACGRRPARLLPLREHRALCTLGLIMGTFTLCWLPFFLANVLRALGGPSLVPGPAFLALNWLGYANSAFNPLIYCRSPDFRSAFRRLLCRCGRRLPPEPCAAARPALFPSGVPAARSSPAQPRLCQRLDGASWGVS
Sequence of UniProt P35348 (whole entry, looked up): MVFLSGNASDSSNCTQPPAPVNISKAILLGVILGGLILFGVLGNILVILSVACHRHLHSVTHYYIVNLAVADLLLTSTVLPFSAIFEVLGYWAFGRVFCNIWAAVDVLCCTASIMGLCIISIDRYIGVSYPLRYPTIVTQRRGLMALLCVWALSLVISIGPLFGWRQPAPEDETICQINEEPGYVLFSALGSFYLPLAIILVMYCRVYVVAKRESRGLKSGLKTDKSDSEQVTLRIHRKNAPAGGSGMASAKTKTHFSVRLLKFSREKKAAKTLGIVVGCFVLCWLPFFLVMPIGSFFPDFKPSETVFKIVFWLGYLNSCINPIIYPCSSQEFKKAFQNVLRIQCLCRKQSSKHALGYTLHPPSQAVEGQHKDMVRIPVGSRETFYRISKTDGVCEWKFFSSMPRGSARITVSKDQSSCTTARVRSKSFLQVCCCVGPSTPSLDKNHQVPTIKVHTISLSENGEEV

Sample 1 — effect on: enzyme activity; action: inhibitor; tested at: 0.5 µM; relative to: control
SMILES: O=Nc1c(-c2c(O)[nH]c3cc(Br)ccc23)[nH]c2ccccc12
target	remaining activity [%]
DDR2 (Homo sapiens, UniProt Q16832)	69.7
DCLK2 (Homo sapiens, UniProt Q8N568)	99.1
MARK2 (Homo sapiens, UniProt Q7KZI7)	61.8
CAMK4 (Homo sapiens, UniProt Q16566)	96.3
MAP2K1 (Homo sapiens, UniProt Q02750)	103
CLK4 (Homo sapiens, UniProt Q9HAZ1)	97
PRKG2 (Homo sapiens, UniProt Q13237)	69.1
Cyclin-dependent kinase 1, with cyclin A (CDK1, Homo sapiens, UniProt P06493)	59.7
CLK3 (Homo sapiens, UniProt P49761)	71.2
TXK (Homo sapiens, UniProt P42681)	27.7
ROCK1 (Homo sapiens, UniProt Q13464)	99
KDR (Homo sapiens, UniProt P35968)	64.2
MAPK14 (Homo sapiens, UniProt Q16539)	105

Sample 2 — action: antagonist
Target: Beta-1 adrenergic receptor (ADRB1, Homo sapiens, UniProt P08588)
Sequence of UniProt P08588 (whole entry, looked up): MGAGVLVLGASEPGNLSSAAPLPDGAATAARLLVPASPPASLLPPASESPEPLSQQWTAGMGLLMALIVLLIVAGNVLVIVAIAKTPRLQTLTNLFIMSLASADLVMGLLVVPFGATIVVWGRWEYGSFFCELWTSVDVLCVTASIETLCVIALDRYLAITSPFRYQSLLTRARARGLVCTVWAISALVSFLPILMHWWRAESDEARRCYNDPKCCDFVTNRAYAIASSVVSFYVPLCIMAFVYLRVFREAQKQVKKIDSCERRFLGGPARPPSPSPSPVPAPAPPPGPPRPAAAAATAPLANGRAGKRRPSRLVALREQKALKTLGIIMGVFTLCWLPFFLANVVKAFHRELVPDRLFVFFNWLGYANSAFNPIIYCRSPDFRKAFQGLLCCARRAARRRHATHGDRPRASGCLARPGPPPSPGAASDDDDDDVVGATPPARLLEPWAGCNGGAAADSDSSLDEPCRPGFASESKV
Compound	IC50 [µM]
CN(c1ccccc1)c1cc(=O)c2ccnc(Nc3cccnc3)c2o1	≥ 100
COc1ccccc1CN[C@H]1[C@H](O)[C@@H](N2CCN(c3ccccc3OC)CC2)[C@@H]2OC[C@H]1O2	≥ 100
CCOc1ccccc1C(=O)N1CCc2cc(OC)c(OC)cc2C1COc1ccc2c(C)cc(=O)oc2c1 (stereo not shown)	≥ 100
O=C(COc1ccccc1)Nc1ccc([C@@H](O)[C@H]2COCC(=O)N2Cc2ccc(C(F)(F)F)cc2)cc1	≥ 100
COc1ccccc1N1CCN(C(=O)c2cc(Br)c[nH]2)CC1	≥ 100
CN(C)Cc1cc(CC2(NCc3ccc(N(C)C)cc3)COC2)no1	≥ 100
O=C(O)COc1ccc(-c2nccc3c2C(=O)N(Cc2c[nH]c4ccccc24)CC(COc2cccc(N4CCOCC4)c2)O3)cc1 (stereo not shown)	≥ 100
CN(CC(O)COc1cccc(CNCCOc2ccccc2)c1)C1CCCCC1 (stereo not shown)	≥ 100
Cc1nc(CN2CCOCC2C2CCCC2O)nc2ccccc12 (stereo not shown)	≥ 100
CN(C)CC(O)c1cc2n(n1)CCN(C(=O)CCc1ccc(=O)[nH]n1)C2 (stereo not shown)	≥ 100
COc1ccccc1N1CCN([S+](=O)([O-])c2ccc(C)c(C)c2C)CC1	≥ 100
Cc1cc(N(C)C)ccc1NC(=O)c1ccc2noc(-c3ccccc3)c2c1	≥ 100

Sample 3 — effect on: cell-free assay; tested at: 10 µM
SMILES: N#Cc1ccc(Nc2ccc3[nH]c(=O)[nH]c3c2)c(Cl)c1
target	inhibition
DRD2 (Homo sapiens, UniProt P14416)	-18.9%
HRH4 (Homo sapiens, UniProt Q9H3N8)	4.43%
ADRA2A (Homo sapiens, UniProt P08913)	2.09%
HRH3 (Homo sapiens, UniProt Q9Y5N1)	8.47%
HRH1 (Homo sapiens, UniProt P35367)	14.7%
DRD3 (Homo sapiens, UniProt P35462)	3.81%
ADRB3 (Homo sapiens, UniProt P13945)	-10.2%
ADRB1 (Homo sapiens, UniProt P08588)	4.98%
CHRM5 (Homo sapiens, UniProt P08912)	12.6%
ADRA1A (Homo sapiens, UniProt P35348)	-23.2%
SIGMAR1 (Homo sapiens, UniProt Q99720)	14%

Sample 4 — effect on: enzyme activity; action: inhibitor; tested at: 77 µM; relative to: untreated
Target: DNA polymerase theta, ATPase domain (POLQ, Homo sapiens, UniProt O75417)
Sequence of UniProt O75417 (whole entry, unmodified, looked up): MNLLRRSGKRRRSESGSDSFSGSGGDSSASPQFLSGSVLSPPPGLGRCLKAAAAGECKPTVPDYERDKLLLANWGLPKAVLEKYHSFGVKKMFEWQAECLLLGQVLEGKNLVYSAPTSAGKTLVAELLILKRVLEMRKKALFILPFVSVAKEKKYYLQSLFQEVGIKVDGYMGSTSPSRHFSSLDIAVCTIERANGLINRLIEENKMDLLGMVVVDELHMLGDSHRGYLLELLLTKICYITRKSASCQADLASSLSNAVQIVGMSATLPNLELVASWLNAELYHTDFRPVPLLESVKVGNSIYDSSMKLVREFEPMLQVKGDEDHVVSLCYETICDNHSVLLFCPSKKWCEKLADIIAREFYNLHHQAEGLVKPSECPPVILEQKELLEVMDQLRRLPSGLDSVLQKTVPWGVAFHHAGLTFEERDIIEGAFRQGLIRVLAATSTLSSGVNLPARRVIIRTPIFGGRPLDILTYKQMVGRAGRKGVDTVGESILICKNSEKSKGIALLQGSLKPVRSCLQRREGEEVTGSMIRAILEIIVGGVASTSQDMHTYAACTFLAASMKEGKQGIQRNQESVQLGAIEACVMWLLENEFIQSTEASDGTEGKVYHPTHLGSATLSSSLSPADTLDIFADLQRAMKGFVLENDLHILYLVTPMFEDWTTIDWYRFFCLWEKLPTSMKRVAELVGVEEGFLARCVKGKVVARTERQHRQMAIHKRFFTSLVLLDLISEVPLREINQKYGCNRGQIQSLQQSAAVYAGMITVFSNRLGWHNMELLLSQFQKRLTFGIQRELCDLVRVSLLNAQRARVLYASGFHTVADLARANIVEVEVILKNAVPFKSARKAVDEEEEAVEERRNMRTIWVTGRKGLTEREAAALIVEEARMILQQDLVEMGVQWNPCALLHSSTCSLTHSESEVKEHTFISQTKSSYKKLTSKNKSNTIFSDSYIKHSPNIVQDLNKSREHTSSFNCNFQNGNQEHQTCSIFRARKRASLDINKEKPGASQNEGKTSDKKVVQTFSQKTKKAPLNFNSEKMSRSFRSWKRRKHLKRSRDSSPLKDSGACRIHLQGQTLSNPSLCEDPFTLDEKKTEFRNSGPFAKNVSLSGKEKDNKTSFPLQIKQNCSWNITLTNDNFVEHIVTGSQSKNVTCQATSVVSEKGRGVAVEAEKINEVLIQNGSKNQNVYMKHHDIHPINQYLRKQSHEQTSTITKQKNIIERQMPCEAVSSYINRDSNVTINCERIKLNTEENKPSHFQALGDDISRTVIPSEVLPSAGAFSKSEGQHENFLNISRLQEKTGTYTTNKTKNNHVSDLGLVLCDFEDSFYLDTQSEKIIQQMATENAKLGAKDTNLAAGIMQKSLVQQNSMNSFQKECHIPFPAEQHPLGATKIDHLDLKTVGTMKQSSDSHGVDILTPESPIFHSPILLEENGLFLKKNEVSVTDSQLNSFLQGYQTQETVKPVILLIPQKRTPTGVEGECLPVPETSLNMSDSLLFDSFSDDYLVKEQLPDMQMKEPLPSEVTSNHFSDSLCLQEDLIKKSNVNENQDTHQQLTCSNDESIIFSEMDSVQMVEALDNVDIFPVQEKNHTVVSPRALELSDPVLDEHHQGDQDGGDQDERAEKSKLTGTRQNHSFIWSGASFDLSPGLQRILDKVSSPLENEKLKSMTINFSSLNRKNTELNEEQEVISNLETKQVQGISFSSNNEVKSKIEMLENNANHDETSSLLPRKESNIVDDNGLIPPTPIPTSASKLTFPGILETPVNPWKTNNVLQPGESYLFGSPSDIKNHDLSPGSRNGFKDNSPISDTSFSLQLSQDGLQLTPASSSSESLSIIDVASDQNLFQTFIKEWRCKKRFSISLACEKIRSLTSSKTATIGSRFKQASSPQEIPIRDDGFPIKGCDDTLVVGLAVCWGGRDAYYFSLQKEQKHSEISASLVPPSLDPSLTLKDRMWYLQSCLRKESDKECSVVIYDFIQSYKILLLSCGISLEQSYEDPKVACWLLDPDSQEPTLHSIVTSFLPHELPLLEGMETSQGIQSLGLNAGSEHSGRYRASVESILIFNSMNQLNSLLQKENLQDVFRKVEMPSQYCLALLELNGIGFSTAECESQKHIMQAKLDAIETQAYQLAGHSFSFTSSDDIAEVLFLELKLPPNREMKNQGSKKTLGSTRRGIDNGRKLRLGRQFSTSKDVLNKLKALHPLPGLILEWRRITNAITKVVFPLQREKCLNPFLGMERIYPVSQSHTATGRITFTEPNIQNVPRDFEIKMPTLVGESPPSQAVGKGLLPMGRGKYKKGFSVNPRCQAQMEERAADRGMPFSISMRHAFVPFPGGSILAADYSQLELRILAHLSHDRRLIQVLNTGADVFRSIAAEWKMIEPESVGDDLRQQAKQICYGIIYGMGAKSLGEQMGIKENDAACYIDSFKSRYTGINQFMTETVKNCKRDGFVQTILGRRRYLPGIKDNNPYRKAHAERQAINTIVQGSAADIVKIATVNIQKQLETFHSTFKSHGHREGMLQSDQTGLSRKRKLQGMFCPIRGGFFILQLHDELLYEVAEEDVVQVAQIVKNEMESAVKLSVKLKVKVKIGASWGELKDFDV
SMILES	remaining activity
CN(C)C/C=C/C(=O)Nc1cc2c(Nc3ccc(F)c(Cl)c3)ncnc2cc1O[C@H]1CCOC1	75.9%
C[C@@H](CN1CCC(Cc2ccccc2)CC1)[C@@H](O)c1ccc(O)cc1	97.2%
CC(C)n1cnc2c(NCc3ccccc3O)nc(NCCCO)nc21	104%
C#C[C@]1(O)CC[C@H]2[C@@H]3CCc4cc(O)ccc4[C@H]3CC[C@@]21C	101%
CC1(C)CCC=[N+]1[O-]	103%
CCN1C(=O)C=CC1=O	109%
NCCCCN	105%
CCc1nc(-c2ccc(OC)cc2)[nH]c1-c1ccncc1	101%
CC(=O)O/N=C1\C(=O)N(Cc2cc(Cl)ccc2Cl)c2ccc(Cl)cc21	99.8%
CCCCOc1c(C(=O)c2c(F)cc(C)cc2F)c[nH]c2nncc1-2	100%
